{"data": "Published values from different studies", "note": "Parts stem from different laboratories: compare values within a part only."}
{"data": "Block 1", "target": "Histone acetyltransferase KAT6A, winged helix 1, GST fusion (KAT6A, Homo sapiens, UniProt Q92794, residues 1-85)", "technique": "protein binding microarray", "molecule type": "double-stranded DNA, one strand shown", "medium": "in vitro", "concentration": "not given", "notes": "8-mer, flanks averaged, mean of 2 arrays, mostly near background", "baseline": "not given", "direction": "higher = stronger binding", "Residues (chain)": "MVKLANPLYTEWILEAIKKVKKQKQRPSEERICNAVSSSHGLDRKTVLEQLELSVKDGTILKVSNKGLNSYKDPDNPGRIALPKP"}
{"Oligonucleotide": "AGTTCTAA", "E-score": -0.0839}
{"Oligonucleotide": "CCCGCGCG", "E-score": 0.478}
{"Oligonucleotide": "CGGGGTAG", "E-score": 0.172}
{"Oligonucleotide": "ATAACCAC", "E-score": -0.212}
{"Oligonucleotide": "ACCTCAGA", "E-score": -0.279}
{"Oligonucleotide": "CACTGTGC", "E-score": 0.0672}
{"Oligonucleotide": "ATTGGCGG", "E-score": 0.142}
{"Oligonucleotide": "AGCCCAAA", "E-score": -0.105}
{"Oligonucleotide": "CTTAGACC", "E-score": -0.221}
{"Oligonucleotide": "AAATGGCA", "E-score": -0.291}
{"data": "Block 2", "target": "Sal-like protein 4, full length isoform B (SALL4, Homo sapiens, UniProt Q9UJQ4-2, residues 1-616)", "technique": "universal PBM", "molecule type": "double-stranded DNA, one strand shown", "medium": "in vitro", "concentration": "not given", "notes": "8-mer, flanks averaged, mean of replicates", "direction": "higher = stronger binding"}
{"Oligonucleotide": "ACGGTTAT", "E-score": 0.141}
{"Oligonucleotide": "GTGTCATA", "E-score": 0.279}
{"Oligonucleotide": "AAGTTTGA", "E-score": 0.133}
{"Oligonucleotide": "AGGAGTCC", "E-score": -0.224}
{"Oligonucleotide": "GAATGATA", "E-score": 0.307}
{"Oligonucleotide": "AATGCTCT", "E-score": 0.0751}
{"Oligonucleotide": "GCTTAGAC", "E-score": -0.142}
{"Oligonucleotide": "CCGCTTTA", "E-score": 0.122}
{"Oligonucleotide": "AAACGAGA", "E-score": 0.0837}
{"data": "Block 3", "target": "Interferon regulatory factor 5, full length, phosphomimetic (IRF5, Homo sapiens, UniProt Q13568-2, residues 1-514, K96S/S451D/S453D/S456D/S462D)", "technique": "protein-binding microarray", "molecule type": "double-stranded DNA, one strand shown", "medium": "in vitro", "concentration": "250 nM", "notes": "60-bp whole probe", "with": "salmon DNA 0.4 mg/ml", "baseline": "random background probes", "direction": "higher = stronger binding", "shared flanks, not repeated": "GCCTAGCAC … GTCTTGATTCGCTTGACGCTGCTG"}
{"Oligonucleotide": "AACGATTTCGGGACTGGAGACGTGCTA", "log fluorescence [z-score]": 1.87}
{"Oligonucleotide": "ATGCATTGTTATTTGTCAATGTGCTAG", "log fluorescence [z-score]": 0.676}
{"Oligonucleotide": "TTAGGTTTCCTACTGCTTTTGTGCTAG", "log fluorescence [z-score]": 0.677}
{"Oligonucleotide": "GATGGCAGTGGAAATTTTACGTGCTAG", "log fluorescence [z-score]": -0.175}
{"Oligonucleotide": "TACGATATCGGGTTTCGAGACGTGCTA", "log fluorescence [z-score]": 3.54}
{"Oligonucleotide": "GACGGTTTCCTTATCCTGAGGTGCTAG", "log fluorescence [z-score]": 0.947}
{"Oligonucleotide": "TCACTTTTCCCCCTAGTACTGTGCTAG", "log fluorescence [z-score]": 1.18}
{"Oligonucleotide": "CACGATTTCAGTCTCGAGACGTGCTAG", "log fluorescence [z-score]": 1.34}
{"Oligonucleotide": "TTAGAACTGCGACTGGATTAGTGCTAG", "log fluorescence [z-score]": -0.0507}
{"Oligonucleotide": "TTTTATTTATAAATTATCTTGTGCTAG", "log fluorescence [z-score]": 1.67}
{"Oligonucleotide": "TCACTAATAAATATGAGACTGTGCTAG", "log fluorescence [z-score]": 0.513}
{"Oligonucleotide": "TCAGATGTGGGACTCACACTGTGCTAG", "log fluorescence [z-score]": -0.633}
{"data": "Other studies, line by line"}
{"Substance": "PhoQ, residues 284 288 289 292 302 303 WVSSAF", "target": "PhoP, residues 12 14 15 18 19 LHHVQ (Escherichia coli, UniProt P23836)", "assay": "Sort-seq, refers to: YFP reporter", "system": "E. coli", "conditions": "PhoQ-PhoP variant library, with: 10 µM Mg2+", "scale": "baseline: high Mg2+ state, higher = stronger signaling", "quantity": "fold induction", "result": 0.637}
{"note": "For quick reference, copied from above (block 1):"}
{"Oligonucleotide": "CGGGGTAG", "E-score": 0.172}
{"Oligonucleotide": "ATAACCAC", "E-score": -0.212}
{"Oligonucleotide": "AGTTCTAA", "E-score": -0.0839}
{"Oligonucleotide": "AGCCCAAA", "E-score": -0.105}
{"Oligonucleotide": "CTTAGACC", "E-score": -0.221}
